Published values pooled from the literature.
Protocols differ between the studies behind these lines. ± marks the error that the study gave.

Structure (SMILES)	assay	test system	setting	how to read	endpoint	result
CC(C)n1c(C2CCNCC2)nc2c([N+](=O)[O-])c(Br)c(Br)cc21	–	patients with AML	125 mg	–	AE of any grade	40%
CC(=O)c1c(C)c2cnc(Nc3ccc(C4CCN(CCS(C)(=O)=O)CC4)cn3)nc2n(C2CCCC2)c1=O	–	HR+/HER2- advanced breast cancer patients	oral, dose not given, grade 3 or 4	–	lymphocytopenia	7.4%
O=S(=O)(Nc1ccccc1)c1ccc(NC(=S)Nc2ccccc2)cc1	–	female mice, lung	oral, 20 mg/kg daily 14 days	reference: body weight	relative organ weight	1.09%
O=C(O)CCCOc1ccc(F)cc1-c1cc(-c2ccccc2C(F)(F)F)n(-c2ccccc2)n1	–	Crl:CD(SD) rat, female, serum	intravenous, 25 µg/kg, 14 days post-dose	–	total protein	5.9 ± 0.39 g/dL
N[C@@H]1c2ccccc2OC12CCN(c1cnc3c(N4CCCc5ncccc54)n[nH]c3n1)CC2	–	advanced metastatic solid tumour patients	oral, 40 mg once daily	–	TEAE leading to withdrawal	0%
COc1ccc([C@@H]2CC(=O)c3c(O)cc(O)cc3O2)cc1O	–	male Sprague-Dawley rat, lean	oral, 100 mg/kg of neohesperidin, 24 to 36 h, after β-glucuronidase/sulfatase hydrolysis	–	urinary excreted amount, total	1130 ± 532 ng
CN1CC[C@@H](c2c(O)cc(O)c3c(=O)cc(-c4ccc(C(F)(F)F)cc4Cl)oc23)[C@@H]1CO	item: Lymphopenia	relapsed B-cell malignancies or AML	oral, 100 mg, grade 3-4, continuous dosing	–	patients with adverse event	0%
CO[C@H]1C[C@@H]2CC[C@@H](C)[C@@](O)(O2)C(=O)C(=O)N2CCCC[C@H]2C(=O)O[C@H]([C@H](C)C[C@@H]2CC[C@@H](OC(=O)NCCOCCOCCOCCOCCOCCOCCOCCOCCC(=O)N3CCc4cc(Cn5nc(-c6ccc7oc(N)nc7c6)c6c(N)ncnc65)ccc4C3)[C@H](OC)C2)C[C@@H](O)[C@H](C)/C=C(\C)[C@@H](O)[C@@H](OC)C(=O)[C@H](C)C[C@H](C)/C=C/C=C/C=C/1C	phase 1 dose escalation, item: fatigue	advanced solid tumour patients	intravenous, 16 mg weekly, any grade	–	TRAE incidence	50%
C[C@]1(CO)Cc2ncn(-c3ccc(C#N)c(Cl)c3)c2C(=O)O1	–	human, Chinese, plasma	80 mg single dose, median	–	tmax	1.8 h
Cc1cc(NC2CCN(C(=O)OC3CCN(C(=O)/C=C/CN(C)C)C3)CC2)n2ncc(C(C)C)c2n1 (centres unmarked)	–	dog	oral, daily for 4 weeks	–	highest non-severely toxic dose	2 mg/kg
[Se]	–	rat, plasma	single dose, sodium selenate	–	Tmax	~1 h
Clc1ccc(-c2cc(Cl)c(Cl)cc2Cl)cc1Cl	–	cow whole milk	2000 nM	reference: milk fat over skim milk	milk fat partition ratio	466
C1=Cc2nc1cc1ccc([n-]1)c(C1CC1)c1nc(cc3ccc([n-]3)c2C2CC2)C=C1.CC(=O)[O-].[Mn+3]	LC-MS/MS	Sprague-Dawley rat, plasma	oral gavage, dose not given, 60 min	–	mean plasma concentration	250 ng/mL
CC(C)[C@@H]1NC(=O)CNC(=O)[C@H](CC(N)=O)NC(=O)[C@H](CCCNC(=N)N)NC(=O)[C@H](Cc2ccc(O)cc2)NC(=O)[C@H](C(C)C)NC(=O)[C@@H](NC(=O)[C@@H](NC(=O)[C@H](CC(N)=O)NC(=O)[C@H](Cc2c[nH]c3ccccc23)NC(=O)[C@H](C)NC(=O)[C@H](Cc2ccccc2)NC(=O)CN)C(C)C)CSSC[C@@H](C(=O)N[C@@H](Cc2cnc[nH]2)C(=O)N[C@@H](CCCNC(=N)N)C(=O)N[C@@H](CCCNC(=N)N)C(=O)N[C@@H](C)C(=O)N[C@@H](CC(N)=O)C(N)=O)NC(=O)[C@H](C(C)C)NC(=O)[C@H](CCCNC(=N)N)NC1=O	–	ICR mouse, blood	intramammary, 10 mg/kg, day 5, 3 d dosing	–	creatinine	86.1 ± 2.09 µmol/L
